Experimental data of several laboratories.
Values joined by “and” are separate records of one study, mostly repeats; a detail may differ. Numbers after ± are the reported error.
HCRTR1: Orexin/Hypocretin receptor type 1 (HCRTR1, Homo sapiens, UniProt O43613)
Sequence of UniProt O43613 (whole entry, looked up): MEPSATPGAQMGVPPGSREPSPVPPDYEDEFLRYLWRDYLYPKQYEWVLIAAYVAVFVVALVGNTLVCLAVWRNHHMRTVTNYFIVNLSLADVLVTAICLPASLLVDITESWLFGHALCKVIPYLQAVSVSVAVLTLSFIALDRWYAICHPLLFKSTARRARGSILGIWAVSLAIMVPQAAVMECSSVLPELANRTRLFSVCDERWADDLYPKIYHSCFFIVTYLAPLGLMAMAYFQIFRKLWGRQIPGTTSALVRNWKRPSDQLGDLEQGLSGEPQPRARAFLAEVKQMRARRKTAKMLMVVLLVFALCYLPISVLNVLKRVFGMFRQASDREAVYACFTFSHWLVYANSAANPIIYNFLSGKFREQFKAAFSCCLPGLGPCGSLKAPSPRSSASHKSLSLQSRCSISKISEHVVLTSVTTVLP
Sequence of UniProt P19020 (whole entry, looked up): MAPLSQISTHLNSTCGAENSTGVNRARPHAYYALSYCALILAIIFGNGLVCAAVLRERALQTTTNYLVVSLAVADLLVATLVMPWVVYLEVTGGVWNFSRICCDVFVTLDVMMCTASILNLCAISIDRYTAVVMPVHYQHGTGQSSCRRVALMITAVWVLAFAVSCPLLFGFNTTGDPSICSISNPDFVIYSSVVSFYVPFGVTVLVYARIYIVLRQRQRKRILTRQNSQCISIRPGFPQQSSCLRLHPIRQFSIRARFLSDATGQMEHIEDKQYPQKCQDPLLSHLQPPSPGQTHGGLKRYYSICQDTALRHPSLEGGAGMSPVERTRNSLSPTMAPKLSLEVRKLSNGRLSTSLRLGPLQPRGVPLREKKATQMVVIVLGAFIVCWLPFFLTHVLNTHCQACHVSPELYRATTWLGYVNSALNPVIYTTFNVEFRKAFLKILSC

`COc1cc2c(cc1OC)C(Cc1cccc([N+](=O)[O-])c1)N(CC(=O)NCc1ccccc1)CC2` (centres unmarked) gave a Kb of greater than 10 µM (HCRTR1; calcium signal, antagonist, fluorescence).
`Cc1cc(Nc2ccc(C)c(Cl)c2)n2nc(C(F)(F)F)nc2n1` gave a maximum solubility of 100 µM (0.1 M sodium acetate with 0.01% Triton X-100; pH 5.5).
With `C=CC(=C)CC[C@]1(C)[C@H](C)C[C@H](OC)[C@@]23C(=C[C@H](OC(=O)[C@@H](C)CC)C[C@@H]12)[C@@H](OC(C)=O)O[C@H]3OC(C)=O` the haemolysis was 16.3% (haemolysis; 100 µM).
With `CN(C)C(=O)c1cc2cnc(Nc3ccc(N4CCNCC4)cn3)nc2n1C1CCCC1` the unbound concentration was 1.61 nmol/g and 1.19 nmol/g and 1.02 nmol/g and 1.36 nmol/g (LC-MS/MS; human, enhancing tumour tissue; oral, 600 mg once daily for 14 days).
`N[C@@H](CC(=O)O)Cn1nnc(-c2ccc(Oc3ncc(Cl)cc3F)cc2)n1` — result for “trough concentration at steady state”: 30 to 40 ng/mL (human, plasma; 20 mg twice daily, 12 h).
`CO[C@H]1C[C@@H]2CC[C@@H](C)[C@@](O)(O2)C(=O)C(=O)N2CCCC[C@H]2C(=O)O[C@H]([C@H](C)C[C@@H]2CC[C@@H](OP(C)(C)=O)[C@H](OC)C2)CC(=O)[C@H](C)/C=C(\C)[C@@H](O)[C@@H](OC)C(=O)[C@H](C)C[C@H](C)/C=C/C=C/C=C/1C` has a t1/2 of 58 ± 8.27 h (Japanese patients, whole blood; oral, 20 mg, day 1).
`CCc1nc(C(N)=O)c(Nc2ccc(N3CCC(N4CCN(C)CC4)CC3)c(OC)c2)nc1NC1CCOCC1` has an AUC(0-72h) of 951 ng·h/mL (healthy humans, after high-fat breakfast, plasma; oral, 40 mg, single dose).
The t1/2 of `CN1CCN(c2ccc3nc(-c4c(N)c5c(F)cccc5[nH]c4=O)[nH]c3c2)CC1` is reported as 15.3 h (patients, plasma; oral, 300 mg, day 1, maximum concurrent dosing, with: gemcitabine and capecitabine).
`Cc1cc(C)c2c(c1)[C@@H](N(Cc1cc(C(F)(F)F)cc(C(F)(F)F)c1)c1nnn(C)n1)CCCN2C[C@H]1CC[C@H](C(=O)O)CC1` has a Vss/F of 543 L (human, plasma; oral, 10 mg once daily, steady state, geometric mean).
`CS(=O)(=O)OC[C@H](O)[C@@H](O)COS(C)(=O)=O` — result for “RBC/plasma partition coefficient”: 0.68 and 0.64 and 0.45 (Wistar rat, female, red blood cells and plasma; intraperitoneal, 500 mg/kg, 1 h).
`COc1cc2c(cc1OC)C(CCc1ccc(N(C)C)cc1)N(CC(=O)NCc1ccccc1)CC2` (centres unmarked) has a Kb of greater than 10 µM (HCRTR1; calcium signal, antagonist, fluorescence).
For `CCCS(=O)(=O)Nc1ccc(F)c(C(=O)c2c[nH]c3ncc(-c4ccc(Cl)cc4)cc23)c1F`, the unbound fraction was 7.9e-06 ± 9e-07 (rapid equilibrium dialysis; 100% human plasma; 350 µM, 4 h).
For `Cc1c(C(=O)NN2CCCCC2)nn(-c2ccc(Cl)cc2Cl)c1-c1ccc(Cl)cc1`, the plasma concentration was 78 nM (LC-MS/MS; cynomolgus monkey 2, plasma; intravenous infusion, 0.2 mg/kg, 90 min, total concentration mid-point of PET).
The tissue uptake of `CC(C)[C@H](NC(=O)[C@@H]1CCCN1C(=O)[C@H](CCCNC(=N)N)NC(=O)[C@H](CS)NC(=O)[C@H](Cc1c[nH]c2ccccc12)NC(=O)[C@H](CCCNC(=N)N)NC(=O)[C@@H](Cc1ccccc1)NC(=O)[C@H](Cc1c[nH]cn1)NC(=O)[C@H](CCC(=O)O)NC(=O)[C@H](CS)NC(=O)[C@H](CS)NC(=O)[C@H](CCCCN)NC(=O)[C@@H]1CC(=O)N[C@@H](CCCNC(=N)N)C(=O)N[C@@H](C)C(=O)N[C@@H](CC(=O)O)C(=O)N[C@H](Cc2ccc(O)cc2)C(=O)N1)C(N)=O` [technetium-99m labelled] is reported as 0.18 ± 0.04 %ID/g (C57 mice, muscle; intravenous, 0.037 MBq, 4 h).
For `C[C@@H](Oc1ccc(S(C)(=O)=O)cc1C(=O)N1C[C@@H]2C[C@]2(c2cc(C(F)(F)F)on2)C1)C(F)(F)F`, the trough concentration was 21.7 nM (human male, CSF; oral, 25 mg once daily, 312 h).
For `Cc1nc2cccc(OCC(C)(C)C(=O)NC(C)C)c2c(N)c1C(=O)O`, the Tmax was 0.25 h (female Sprague-Dawley rat, plasma; oral gavage, 10 mg/kg, day 1).
`CCOC(=O)C1=C[C@@H](OC(CC)CC)[C@H](NC(C)=O)[C@@H](N)C1`: “elimination rate constant” 4.89e-05 ± 2.17e-05 s⁻¹ (healthy Indian human, plasma; oral, 75 mg single, test capsule fed).
`CN1CC[C@@H](NC(=O)Nc2ccc(C#N)cc2)C[C@@H]1c1nc2ccccc2[nH]1` has a ΔΔQTcF of 13.7 ms (healthy human volunteers; oral, 200 mg once daily, 2445 ng/mL, supratherapeutic steady-state Cmax).
The AUC(0-t) of `CCCC[C@H](NC(C)=O)C(=O)N[C@H]1CCC(=O)NC[C@@H](C(=O)N[C@@H](Cc2c[nH]c3ccccc23)C(N)=O)NC(=O)[C@H](CCCNC(=N)N)NC(=O)[C@@H](Cc2ccccc2)NC(=O)[C@H](Cc2c[nH]cn2)NC1=O` is reported as 4030 ng·h/mL (CD Sprague-Dawley rat, female, plasma; subcutaneous, 5.0 mg/kg/day, day 1).
For `COc1cccc(N2CCN(C3=Nc4c(F)cccc4[C@H](CC(=O)O)N3c3cc(C(F)(F)F)ccc3OC)CC2)c1`, “elimination rate constant” read 1.84e-05 ± 5.92e-06 s⁻¹ (UHPLC-MS/MS; healthy women, plasma; intravenous infusion, 720 mg single dose, 60 min infusion, HPβCD formulation).
The dose-normalized AUC(0-t) of `[2H]C([2H])([2H])Oc1cc2c(cc1OC([2H])([2H])[2H])C1CC(=O)C(CC(C)C)CN1CC2` (centres unmarked) is reported as 21.2 ng·h/mL (refers to: deuterated total (α+β)-HTBZ; healthy human volunteers, plasma; oral, 18 mg single dose, standard meal).
With `CC1(C)CCc2c(-c3ccc(O[11CH3])cc3F)cc(C(N)=O)nc2O1` the unbound fraction was 0.099 ± 0.011 (female cynomolgus monkey, arterial plasma; blocking condition).
`O=C(/C=C/c1ccc(O)c2c1[C@H](C(=O)O)[C@@H](c1ccc(O)c(O)c1)O2)O[C@H](Cc1ccc(O)c(O)c1)C(=O)O` has an MRT(0-t) of 7.93 ± 1.52 h (UPLC-MS/MS; Wistar rat, microcirculation dysfunction model, plasma; oral, 100 mg/kg Salvia miltiorrhiza stem-leaf extract FS).
For `CN(C)C(=O)c1cc2cnc(Nc3ccc(N4CCNCC4)cn3)nc2n1C1CCCC1`, “amount excreted in urine” read 11.4 mg (human, severe renal impairment; oral, 400 mg, 0 to 144 h, geometric mean).
For `O=C1CCc2ccccc2C(=O)c2ccccc2N1`, the kinetic solubility was greater than 100 µg/mL (nephelometry; aqueous buffer; 30 min, pH 6.5).
For `C[C@]1(C(=O)O)CSC(c2ccc(OCCCCCCO)cc2O)=N1`, “urinary Kim-1 excretion” read less than 20 ng/kg/24 h (male Sprague-Dawley rats, urine; oral, 384 µmol/kg/day for 10 days).
`C=CC(N)CCC(=O)O` (centres unmarked) gave an AUC(0-inf) of 1840 ± 68 ng·h/mL (male Sprague-Dawley rat, plasma; oral, 1.0 mg/kg, formulation 6, with: BCH 200 mg/kg).
`Cc1nc(-c2ccc(OCC(C)C)c(C#N)c2)sc1C(=O)O` gave an AUC(0-24) of 2760 ng·h/mL (adults with gout, plasma; oral, 40 mg, with: verinurad 2.5 mg).
The tissue uptake of `CCCC[C@@H]1NC(=O)[C@@H](NC(=O)[C@H](CCC(=O)O)NC(=O)CNC(=O)CN2CCN(CC(=O)O)CCN(CC(=O)O)CCN(CC(=O)O)CC2)CCCCNC(=O)C[C@@H](C(N)=O)NC(=O)[C@H](C(C)C)NC(=O)[C@@H]2CCCN2C(=O)[C@H](CCCNC(=N)N)NC(=O)CNC(=O)[C@H](Cc2c[nH]c3ccccc23)NC(=O)[C@H](CCCNC(=N)N)NC(=O)[C@@H](Cc2ccccc2)NC(=O)[C@H](Cc2c[nH]cn2)NC(=O)[C@H](CCC(=O)O)NC1=O` [indium-111 labelled] is reported as 0.06 ± 0.04 %ID/g (normal C57 mice, spleen; intravenous, 0.037 MBq, 4 h).
For `O=c1[nH]cc(F)c(=O)[nH]1`, the Css was 439 ± 172 ng/mL (patients, plasma; intravenous, 2400 mg/m2 maintenance, cycle 1, once-daily cohort, no vorinostat).
`N#CC[C@H](C1CCCC1)n1cc(-c2ncnc3[nH]ccc23)cn1` gave a bioavailability of 6.22% (human; topical, 1.5% twice daily).
`N#C[C@@H]1CCCN1C(=O)CNC12CC3CC(CC(O)(C3)C1)C2` gave an AUC of 19800 ng·h/mL (male ICR mouse, kidney; oral, 3 mg/kg, 24 h).
`CCCCCCCCCCCCCNCC(=O)N(CC(=O)N(CCCCN)CC(=O)N(CCCCN)CC(=O)N(CC(N)=O)C1CCCCC1)C1CCCCC1` — result for “acetonitrile at elution”: 67.4% (preparative RP-HPLC C18; water to acetonitrile gradient; 0.05% TFA in eluent; higher = more hydrophobic).
For `teicoplanin`, the trough concentration was 15.9 ± 4.94 mg/L (human, CrCl 40 to 60 mL/min, serum; intravenous, 400 mg q12h loading, 400 mg/day, day 4).
Under “metabolite to parent Cmax ratio”, `CCn1c(=O)c2c(nc(/C=C/c3ccc(O)c(OC)c3)n2C)n(CC)c1=O` is recorded as 0.0778 (healthy humans, plasma; oral, 40 mg, with: rifampin 600 mg/day).
The AUC(0-24) of `COC(=O)N[C@H](C(=O)N[C@@H](Cc1ccccc1)[C@@H](O)CN(Cc1ccc(-c2ccccn2)cc1)NC(=O)[C@@H](NC(=O)OC)C(C)(C)C)C(C)(C)C` is reported as 40200 ng·h/mL (HIV-infected patients, plasma; oral, 300 mg once daily, day 1, steady state, with: ritonavir 100 mg once daily).
`CCCN(CC[C@]1(O)C[C@@H](NC(=O)c2cccc(OC)c2)C1)[C@H]1CCc2nc(N)sc2C1` (relative stereo) has a Ki of 0.00076 µM (Drd3 (Rattus norvegicus, UniProt P19020); ligand displacement, radioligand; cell membranes).
For `O=C1N=C(N2CCOCC2)CN1c1ccc(Cl)cc1`, the AUC(0-inf) was 116000 ng·h/mL (beagle dog, both sexes, plasma; oral, 30 mg/kg, tablets, fasted, day 0).

A few entries again:
For `COc1cccc(N2CCN(C3=Nc4c(F)cccc4[C@H](CC(=O)O)N3c3cc(C(F)(F)F)ccc3OC)CC2)c1`, “elimination rate constant” read 1.84e-05 ± 5.92e-06 s⁻¹ (UHPLC-MS/MS; healthy women, plasma; intravenous infusion, 720 mg single dose, 60 min infusion, HPβCD formulation).
The dose-normalized AUC(0-t) of `[2H]C([2H])([2H])Oc1cc2c(cc1OC([2H])([2H])[2H])C1CC(=O)C(CC(C)C)CN1CC2` (centres unmarked) is reported as 21.2 ng·h/mL (refers to: deuterated total (α+β)-HTBZ; healthy human volunteers, plasma; oral, 18 mg single dose, standard meal).
With `CC1(C)CCc2c(-c3ccc(O[11CH3])cc3F)cc(C(N)=O)nc2O1` the unbound fraction was 0.099 ± 0.011 (female cynomolgus monkey, arterial plasma; blocking condition).
`O=C(/C=C/c1ccc(O)c2c1[C@H](C(=O)O)[C@@H](c1ccc(O)c(O)c1)O2)O[C@H](Cc1ccc(O)c(O)c1)C(=O)O` has an MRT(0-t) of 7.93 ± 1.52 h (UPLC-MS/MS; Wistar rat, microcirculation dysfunction model, plasma; oral, 100 mg/kg Salvia miltiorrhiza stem-leaf extract FS).
For `CN(C)C(=O)c1cc2cnc(Nc3ccc(N4CCNCC4)cn3)nc2n1C1CCCC1`, “amount excreted in urine” read 11.4 mg (human, severe renal impairment; oral, 400 mg, 0 to 144 h, geometric mean).
For `O=C1CCc2ccccc2C(=O)c2ccccc2N1`, the kinetic solubility was greater than 100 µg/mL (nephelometry; aqueous buffer; 30 min, pH 6.5).
